Experimental data from different studies.
Numbered parts are unrelated; each lists some results of a single study.
Chain of UniProt Q13233 (whole entry, looked up): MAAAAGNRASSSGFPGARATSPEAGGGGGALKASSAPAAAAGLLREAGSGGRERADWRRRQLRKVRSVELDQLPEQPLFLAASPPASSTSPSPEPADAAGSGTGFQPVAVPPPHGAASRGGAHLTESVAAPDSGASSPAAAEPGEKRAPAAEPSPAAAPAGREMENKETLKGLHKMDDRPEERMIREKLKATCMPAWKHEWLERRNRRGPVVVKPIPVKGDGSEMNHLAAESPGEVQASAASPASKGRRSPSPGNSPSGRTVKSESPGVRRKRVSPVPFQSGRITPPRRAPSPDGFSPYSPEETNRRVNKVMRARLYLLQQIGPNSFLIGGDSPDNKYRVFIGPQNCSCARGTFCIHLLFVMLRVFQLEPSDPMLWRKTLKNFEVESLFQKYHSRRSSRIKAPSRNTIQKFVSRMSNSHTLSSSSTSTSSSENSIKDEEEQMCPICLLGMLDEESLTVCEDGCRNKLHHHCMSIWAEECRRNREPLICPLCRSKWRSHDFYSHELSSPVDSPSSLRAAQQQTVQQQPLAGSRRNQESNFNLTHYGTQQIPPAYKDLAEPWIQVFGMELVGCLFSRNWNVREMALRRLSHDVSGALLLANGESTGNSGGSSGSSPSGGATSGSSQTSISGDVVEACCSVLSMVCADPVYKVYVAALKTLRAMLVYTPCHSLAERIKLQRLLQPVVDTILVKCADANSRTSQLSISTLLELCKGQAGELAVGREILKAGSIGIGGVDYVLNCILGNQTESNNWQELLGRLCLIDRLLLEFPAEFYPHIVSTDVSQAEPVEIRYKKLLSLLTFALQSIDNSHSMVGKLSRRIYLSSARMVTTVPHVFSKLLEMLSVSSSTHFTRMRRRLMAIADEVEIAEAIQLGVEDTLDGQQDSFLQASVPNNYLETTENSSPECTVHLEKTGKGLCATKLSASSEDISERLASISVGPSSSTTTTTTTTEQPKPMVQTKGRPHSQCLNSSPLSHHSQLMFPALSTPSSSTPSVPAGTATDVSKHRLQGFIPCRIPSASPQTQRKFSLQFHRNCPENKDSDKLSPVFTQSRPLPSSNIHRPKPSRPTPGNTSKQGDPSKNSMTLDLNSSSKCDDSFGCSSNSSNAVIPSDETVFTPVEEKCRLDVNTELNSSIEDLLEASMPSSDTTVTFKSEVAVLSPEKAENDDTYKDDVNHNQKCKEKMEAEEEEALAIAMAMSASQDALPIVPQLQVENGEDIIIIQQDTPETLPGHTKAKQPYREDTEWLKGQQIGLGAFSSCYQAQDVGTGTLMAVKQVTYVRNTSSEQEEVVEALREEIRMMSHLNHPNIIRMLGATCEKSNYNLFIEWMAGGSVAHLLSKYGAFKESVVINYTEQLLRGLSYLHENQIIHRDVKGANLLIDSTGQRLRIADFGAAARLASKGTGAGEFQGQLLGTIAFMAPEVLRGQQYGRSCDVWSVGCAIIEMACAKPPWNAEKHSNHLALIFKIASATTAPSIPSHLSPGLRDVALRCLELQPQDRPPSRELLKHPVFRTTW
Chain of UniProt Q16832 (whole entry, looked up): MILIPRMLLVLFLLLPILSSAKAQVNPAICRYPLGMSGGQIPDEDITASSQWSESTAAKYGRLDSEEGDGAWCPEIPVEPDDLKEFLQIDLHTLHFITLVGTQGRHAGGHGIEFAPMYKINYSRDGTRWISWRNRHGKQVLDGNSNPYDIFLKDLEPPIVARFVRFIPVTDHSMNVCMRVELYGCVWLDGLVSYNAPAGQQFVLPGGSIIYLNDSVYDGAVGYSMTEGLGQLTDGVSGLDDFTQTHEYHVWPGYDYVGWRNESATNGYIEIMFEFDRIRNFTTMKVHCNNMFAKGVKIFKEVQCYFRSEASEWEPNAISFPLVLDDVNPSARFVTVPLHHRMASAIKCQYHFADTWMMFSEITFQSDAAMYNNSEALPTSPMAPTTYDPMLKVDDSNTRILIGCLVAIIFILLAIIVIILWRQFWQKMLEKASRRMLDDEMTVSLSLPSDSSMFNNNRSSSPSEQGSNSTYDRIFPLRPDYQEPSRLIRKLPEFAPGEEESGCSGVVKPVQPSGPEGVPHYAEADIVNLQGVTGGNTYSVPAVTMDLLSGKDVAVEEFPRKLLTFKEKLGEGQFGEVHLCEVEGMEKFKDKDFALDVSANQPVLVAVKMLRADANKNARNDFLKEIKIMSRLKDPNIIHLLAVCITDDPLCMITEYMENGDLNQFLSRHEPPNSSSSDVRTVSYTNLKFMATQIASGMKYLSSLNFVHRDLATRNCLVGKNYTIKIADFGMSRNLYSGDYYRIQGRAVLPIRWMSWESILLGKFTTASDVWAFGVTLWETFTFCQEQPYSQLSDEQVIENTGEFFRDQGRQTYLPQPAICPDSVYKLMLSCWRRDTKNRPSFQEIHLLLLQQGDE
Chain of UniProt O96013 (whole entry, looked up): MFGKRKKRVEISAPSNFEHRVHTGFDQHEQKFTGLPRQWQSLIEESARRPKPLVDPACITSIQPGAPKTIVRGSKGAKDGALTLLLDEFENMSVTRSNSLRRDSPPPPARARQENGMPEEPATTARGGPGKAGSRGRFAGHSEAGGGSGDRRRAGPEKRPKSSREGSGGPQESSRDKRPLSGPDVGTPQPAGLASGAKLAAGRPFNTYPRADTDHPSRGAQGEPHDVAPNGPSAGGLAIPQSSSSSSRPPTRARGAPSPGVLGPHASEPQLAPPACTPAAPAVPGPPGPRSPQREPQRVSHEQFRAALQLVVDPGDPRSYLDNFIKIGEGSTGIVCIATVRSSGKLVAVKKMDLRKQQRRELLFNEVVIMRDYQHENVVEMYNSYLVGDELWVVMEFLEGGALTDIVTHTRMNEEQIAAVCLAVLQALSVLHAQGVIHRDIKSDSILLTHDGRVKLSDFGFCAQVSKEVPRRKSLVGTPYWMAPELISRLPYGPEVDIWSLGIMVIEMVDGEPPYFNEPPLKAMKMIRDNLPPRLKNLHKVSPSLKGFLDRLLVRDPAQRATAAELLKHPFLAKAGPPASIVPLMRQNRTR
Chain of UniProt Q16539 (whole entry, looked up): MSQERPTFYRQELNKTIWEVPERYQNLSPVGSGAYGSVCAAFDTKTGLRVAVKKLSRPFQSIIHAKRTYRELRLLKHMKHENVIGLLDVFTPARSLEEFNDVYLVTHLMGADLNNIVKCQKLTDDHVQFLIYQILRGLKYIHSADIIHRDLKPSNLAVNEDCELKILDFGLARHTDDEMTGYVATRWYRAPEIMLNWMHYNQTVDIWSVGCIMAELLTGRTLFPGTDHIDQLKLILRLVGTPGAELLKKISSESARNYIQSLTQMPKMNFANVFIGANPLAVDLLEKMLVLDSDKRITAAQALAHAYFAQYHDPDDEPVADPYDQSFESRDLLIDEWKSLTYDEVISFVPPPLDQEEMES
Chain of UniProt P10721 (whole entry, looked up): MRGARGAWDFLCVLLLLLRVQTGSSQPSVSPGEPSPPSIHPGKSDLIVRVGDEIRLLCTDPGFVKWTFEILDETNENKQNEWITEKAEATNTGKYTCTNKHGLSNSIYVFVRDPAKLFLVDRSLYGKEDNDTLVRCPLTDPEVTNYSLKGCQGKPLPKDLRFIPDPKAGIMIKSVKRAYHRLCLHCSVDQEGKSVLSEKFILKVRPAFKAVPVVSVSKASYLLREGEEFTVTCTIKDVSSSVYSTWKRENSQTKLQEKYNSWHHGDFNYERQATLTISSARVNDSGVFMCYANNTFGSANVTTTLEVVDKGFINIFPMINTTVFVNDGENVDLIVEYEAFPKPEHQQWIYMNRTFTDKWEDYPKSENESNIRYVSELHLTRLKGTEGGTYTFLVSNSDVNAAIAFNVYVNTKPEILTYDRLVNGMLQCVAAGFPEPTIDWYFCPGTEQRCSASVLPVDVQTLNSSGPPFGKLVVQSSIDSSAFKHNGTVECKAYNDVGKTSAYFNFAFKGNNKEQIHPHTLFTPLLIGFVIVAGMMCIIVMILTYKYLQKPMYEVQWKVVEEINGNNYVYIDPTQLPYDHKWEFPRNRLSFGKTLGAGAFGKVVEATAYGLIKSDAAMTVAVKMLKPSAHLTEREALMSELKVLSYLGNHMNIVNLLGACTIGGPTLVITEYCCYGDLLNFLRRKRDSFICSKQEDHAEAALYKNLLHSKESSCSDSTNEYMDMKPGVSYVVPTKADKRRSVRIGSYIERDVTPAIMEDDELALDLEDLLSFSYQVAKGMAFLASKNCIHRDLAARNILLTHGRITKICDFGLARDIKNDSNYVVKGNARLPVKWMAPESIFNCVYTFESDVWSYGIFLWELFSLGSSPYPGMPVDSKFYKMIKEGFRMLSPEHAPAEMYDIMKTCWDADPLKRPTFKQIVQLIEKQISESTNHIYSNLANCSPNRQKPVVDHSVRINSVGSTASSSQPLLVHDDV
Chain of UniProt Q15759 (whole entry, looked up): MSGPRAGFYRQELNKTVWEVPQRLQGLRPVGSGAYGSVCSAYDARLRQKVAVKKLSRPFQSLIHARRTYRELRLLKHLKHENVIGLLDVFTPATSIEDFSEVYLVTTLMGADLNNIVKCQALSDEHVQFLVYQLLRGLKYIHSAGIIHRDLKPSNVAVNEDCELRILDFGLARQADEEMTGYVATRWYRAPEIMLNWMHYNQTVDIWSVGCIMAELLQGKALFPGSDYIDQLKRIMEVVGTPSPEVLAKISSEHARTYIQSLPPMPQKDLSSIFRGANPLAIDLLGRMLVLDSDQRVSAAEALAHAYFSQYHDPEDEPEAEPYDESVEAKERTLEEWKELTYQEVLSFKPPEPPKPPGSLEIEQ
Chain of UniProt Q6P2M8 (whole entry, looked up): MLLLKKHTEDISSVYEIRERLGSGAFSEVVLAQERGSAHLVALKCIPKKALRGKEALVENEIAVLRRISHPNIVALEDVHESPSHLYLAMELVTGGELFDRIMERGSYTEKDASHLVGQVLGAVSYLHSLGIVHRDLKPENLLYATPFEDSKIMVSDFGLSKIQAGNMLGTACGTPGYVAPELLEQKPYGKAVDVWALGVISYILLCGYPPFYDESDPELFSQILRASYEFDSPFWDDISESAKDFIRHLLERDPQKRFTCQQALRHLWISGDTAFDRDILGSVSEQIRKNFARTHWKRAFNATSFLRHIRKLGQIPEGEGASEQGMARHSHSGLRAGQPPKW

Sample 1 — observed: enzyme activity; mode: inhibitor; tested at: 0.5 µM; baseline: control
Compound: COc1cc2ncnc(N3CCN(C(=O)Nc4ccc(Oc5ccccc5)cc4)CC3)c2cc1OC
| target | remaining activity [%] |
| --- | --- |
| MET (Homo sapiens, UniProt P08581) | 107 |
| PRKG2 (Homo sapiens, UniProt Q13237) | 97.5 |
| MAPK11 (Homo sapiens, UniProt Q15759) | 99.6 |
| ROCK1 (Homo sapiens, UniProt Q13464) | 86 |
| GRK4 (Homo sapiens, UniProt P32298) | 94.7 |
| PLK3 (Homo sapiens, UniProt Q9H4B4) | 91.8 |
| Cyclin-dependent kinase 9, with cyclin K (CDK9, Homo sapiens, UniProt P50750) | 83.6 |
| MAPK14 (Homo sapiens, UniProt Q16539) | 81 |
| CDC42BPB (Homo sapiens, UniProt Q9Y5S2) | 98.3 |
| AKT2 (Homo sapiens, UniProt P31751) | 87.6 |
| DDR2 (Homo sapiens, UniProt Q16832) | 95.1 |
| CLK4 (Homo sapiens, UniProt Q9HAZ1) | 65.6 |
| MAPK1 (Homo sapiens, UniProt P28482) | 83.9 |
| PNCK (Homo sapiens, UniProt Q6P2M8) | 94.3 |

Sample 2 — observed: cell-free assay; method: competition with immobilised ligand; tested at: 0.1 µM
Structure (SMILES): Nc1c(C(=O)NCc2ccc(C(=O)NCCCC3CCCCC3)cc2)cnn1-c1ccccc1
| target | remaining binding [%] |
| --- | --- |
| Mast/stem cell growth factor receptor Kit, autoinhibited (KIT, Homo sapiens, UniProt P10721) | 100 |
| CLK1 (Homo sapiens, UniProt P49759) | 100 |
| PAK4 (Homo sapiens, UniProt O96013) | 99 |
| FLT1 (Homo sapiens, UniProt P17948) | 100 |
| MAP3K1 (Homo sapiens, UniProt Q13233) | 96 |
| PRPF4B (Homo sapiens, UniProt Q13523) | 100 |

Sample 3 — method: protein-binding microarray; molecule type: double-stranded DNA, one strand shown; medium: in vitro; tested at: 940 nM top; notes: 60-bp whole probe; added: salmon DNA 0.4 mg/ml; baseline: random background probes; reading: higher = stronger binding; all sequences stand within: GCCTAGCAC … GTCTTGATTCGCTTGACGCTGCTG
Target: Interferon regulatory factor 5, full length, phosphomimetic (IRF5, Homo sapiens, UniProt Q13568-2, residues 1-514, S451D/S453D/S456D/S462D)
| Strand | fitted relative affinity [z-score] |
| --- | --- |
| GACGATATCGGGTTTCGACACGTGCTA | 2.57 |
| AGGGAGGTCTCTCCCGACCTGTGCTAG | 1.48 |
| TTAGATCTCAGTATCGACTAGTGCTAG | 2.45 |
| CTATTTTTCCCCTGCACTCAGTGCTAG | 1.34 |
| TTAGGTTTCCTTATCCTTTAGTGCTAG | 2.08 |
| ATTAGAGGATAACTTACAGAGTGCTAG | -0.526 |
| TCACCTTCTACTCTCCTACTGTGCTAG | 1.29 |
| TTAGAATTGAGTCTCGATTAGTGCTAG | 3.5 |

Sample 4 — method: RNA Bind-n-Seq; molecule type: RNA; medium: in vitro; tested at: 365 nM; baseline: no-protein control; reading: higher = stronger binding
Target: RNA binding protein fox-1 homolog 2, RRM domain, GST-SBP tag (RBFOX2, Homo sapiens, UniProt O43251-10, residues 100-194)
Notes: natural RNA segment, single round, ends assumed
All sequences stand within: GGGAGUUCUACAGUCCGACGAUC … UGGAAUUCUCGGGUGCCAA
Residues (chain): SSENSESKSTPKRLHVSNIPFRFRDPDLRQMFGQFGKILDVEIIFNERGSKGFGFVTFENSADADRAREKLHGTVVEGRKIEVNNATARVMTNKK
| Strand | RBNS enrichment (R) |
| --- | --- |
| UGUGGUGGGUGGGGAUAAUUUUUGUGCAGUCUUUUUUAGUGACCAAACUUUAAUUUUGAAGAAGAAUAUAUUGACUUACUAAGGGGAAGUAUUCUCAUUUUGAGUGACAU | 0.787 |
| AAAGAGAAAGCCUGGAAGGAAAUGUUCCAACUCCUUAGAAGGGUCGUGCAAGCUGCUGUGGGAGGGUAAGCACCCCUCCCAGCACAGAAACCUUUCCUUUGAAUCAAUAA | 0.44 |
| AGAGCAAAAAAACCCAAACACGAUAAACCUUUCAAAAGACUUUCUAAGGAUGAUAUUGGAAUGCACCAGCCCUCACAUGUGUAUGCACAUUUGCCAGAAUAUAAGAGUUU | 0.904 |
| UGGUCUGAGAGGGAGAAGCCUGGAUGUAGGAAAACCCGUUUCCACCCCAGGCCCUACUCCCUAGCCUUUUCCAAGUGGGACAUGGAAGAGGCAGCCUGCUGCCUGGAUGC | 0.687 |
| AGGAAUAGGCAAGAAGCCAGUCUCCCCAGGUUGGAAGAGGAUCAUGGGCCUGGCCUAGCUCCUCCGCCCUGGCCUAGCCCAGCAAACCCUGGGCGAGUCACAGAGUUUGC | 0.247 |
| CGGAAUGUGUCAGUGCAUUUUCUCCUUGCUGAGAGUCUCAGCUCCAAUCUCUUCAUAAUUUUGUUCUGUAAAAGAUGAACCUUUCCGAGUGAUGCAUUCAAACUGUCUAG | 0.658 |
| UUAAUCGGUGCUUUAUGGAGGCCAGUGUAACGUUACAUGACUCGUUGAGAAAGUUGAGGAAUUUCCUCUACCACCUUUGUUGCUUGAAGAAAAACAUGUCUUUUCAAAAU | 0.604 |
| CCUGACUCCUGGGCCAUUUCCUAAUGGUACUGUAAGCCAAGUGGCUCGGCUUCUGCCUCUGUUUCCAAGCCCACCCCUUCCCGGAGGGAUAGGGACGGGUGCUUUCCUCU | 0.289 |

A few entries again (sample 4):
| Strand | RBNS enrichment (R) |
| --- | --- |
| AGGAAUAGGCAAGAAGCCAGUCUCCCCAGGUUGGAAGAGGAUCAUGGGCCUGGCCUAGCUCCUCCGCCCUGGCCUAGCCCAGCAAACCCUGGGCGAGUCACAGAGUUUGC | 0.247 |
| CGGAAUGUGUCAGUGCAUUUUCUCCUUGCUGAGAGUCUCAGCUCCAAUCUCUUCAUAAUUUUGUUCUGUAAAAGAUGAACCUUUCCGAGUGAUGCAUUCAAACUGUCUAG | 0.658 |
| UUAAUCGGUGCUUUAUGGAGGCCAGUGUAACGUUACAUGACUCGUUGAGAAAGUUGAGGAAUUUCCUCUACCACCUUUGUUGCUUGAAGAAAAACAUGUCUUUUCAAAAU | 0.604 |
| CCUGACUCCUGGGCCAUUUCCUAAUGGUACUGUAAGCCAAGUGGCUCGGCUUCUGCCUCUGUUUCCAAGCCCACCCCUUCCCGGAGGGAUAGGGACGGGUGCUUUCCUCU | 0.289 |
